Assay results collected from several papers.
Each line is one published result; not all experiments were run side by side. Values joined by “and” are separate records of one study, mostly repeats; a detail may differ. ± gives the spread as reported.

SMILES = O=C(CNc1nc(NS(=O)(=O)c2ccccc2)ncc1-c1nc2ccccc2s1)c1ccc(Cl)cc1; cell line = BGM; assay = cytotoxicity; setting = 72 h; endpoint = maximum non-toxic concentration; value = 110 µg/mL
SMILES = O=P1(C2CCCCC2)CCCCC1; cell line = PC-3; assay = trypan blue; setting = IC50, 72 h; endpoint = viability; value = 94.7%
SMILES = CN1C[C@@H]2C[C@H]1CN2c1cc2c(cc1F)c(=O)c(C(=O)O)cn2C1CC1; cell line = parental MDCK-II; assay = transepithelial transport; setting = 10 µM, 4 h; how to read = baseline: B-A over A-B; endpoint = efflux ratio; value = 1.08 ± 0.18
SMILES = CSc1nc(NS(=O)(=O)c2ccccc2)nc(N)c1-c1nc2ccccc2s1; cell line = BGM; assay = cytotoxicity; setting = 72 h; endpoint = maximum non-toxic concentration; value = 90 µg/mL
SMILES = COc1cc2ncnc(Nc3ccc(Oc4ccccc4)c(C)c3C)c2cc1OC.Cl; cell line = MeWo (NF1 mutant); assay = resazurin; setting = 3 µM, 72 h, unit not given, together with: trametinib; how to read = baseline: DMSO; endpoint = viability; value = 0.796
SMILES = Cc1ccc(-c2nc(N)nc(N)c2-c2nc3ccccc3s2)cc1; cell line = BGM; assay = cytotoxicity; setting = 72 h; endpoint = maximum non-toxic concentration; value = 100 µg/mL
SMILES = COc1cccc2c1C(=O)c1c(O)c3c(c(O)c1C2=O)C[C@@](O)(C(=O)CO)C[C@@H]3O[C@H]1C[C@H](N)[C@H](O)[C@H](C)O1; cell line = BNL mouse liver cells; assay = SRB; setting = 0.1 µM, 10% fetal bovine serum; endpoint = viability; value = 99%
SMILES = CSc1c(-c2nc3ccccc3s2)c(N)n(NS(=O)(=O)c2ccc(C)cc2)c(=O)c1C#N; cell line = BGM; setting = 72 h; endpoint = maximum non-toxic concentration; value = 110 µg/mL
SMILES = O=C(CNc1nc(NS(=O)(=O)c2ccccc2)ncc1-c1nc2ccccc2s1)c1ccc(Br)cc1; cell line = BGM; assay = cytotoxicity; setting = 72 h; endpoint = maximum non-toxic concentration; value = 120 µg/mL
SMILES = CCn1c(=O)c(-c2cc[nH]n2)cc2c(C)nc(N)nc21; cell line = RD; assay = MTT; setting = up to 0.8 µM, 24 h; endpoint = cytotoxicity; value = not toxic
SMILES = Cc1cc(C)c(CNC(=O)c2cc(Cl)c3c(c2C)O[C@@](C)([C@H]2CC[C@H](N(C)C)CC2)O3)c(=O)[nH]1; cell line = Caco-2; setting = 20 µM; endpoint = Papp A to B; value = 0.41 ± 0.013 ×10⁻⁶ cm/s
SMILES = Nc1nc(NS(=O)(=O)c2ccccc2)nc(-c2ccccc2)c1-c1nc2ccccc2s1; cell line = BGM; assay = cytotoxicity; setting = 72 h; endpoint = maximum non-toxic concentration; value = 90 µg/mL
SMILES = COc1ccc(Cn2cc(CO[C@@H]3O[C@H]4[C@H](OC[C@H]4O)[C@H]3O)nn2)cc1; cell line = CAL-51; assay = cytotoxicity, CellTiter-Glo; setting = up to 30 µM, 72 h; endpoint = viability; value = not toxic
SMILES = COc1c(C)c(OC)c2c(c1C)OC(c1ccccc1)CC2=O (centres unmarked); cell line = normal human liver cell line; assay = cytotoxicity, SRB; setting = 72 h; endpoint = IC50; value = > 50 µM
SMILES = COc1ccc(NC(=S)N/N=C/c2cccc3cc4ccccc4nc23)cc1; cell line = HeLa; assay = annexin V/PI; setting = IC12.5, 48 h, together with: NAC; endpoint = viable cells; value = 87.45 ± 0.65%
SMILES = CCOC(=O)c1cc(C#N)c(=O)n(NS(=O)(=O)c2ccc(C)cc2)c1N; cell line = BGM; setting = 72 h; endpoint = maximum non-toxic concentration; value = 90 µg/mL
SMILES = CCCN1CCCC[C@H]1C(=O)Nc1c(C)cccc1C; cell line = C2C12 myotubes; assay = MTS; setting = 1 to 3 mM, 24 h; how to read = baseline: prilocaine; endpoint = viability; value = decreased
SMILES = CCN(CC)C(=S)SSC(=S)N(CC)CC; cell line = differentiated LUHMES MT1G::HiBiT-G2 neurons; assay = cytotoxicity; test system = 3D neurospheres; setting = 24 h; endpoint = AC50; value = < 1 µM
SMILES = FC(F)(F)CN1CC(n2cc(Oc3ccn4nc(Cl)cc4n3)cn2)C1; cell line = Caco-2/TC7; setting = 20 µM; endpoint = Papp (A-B); value = 61.8 ×10⁻⁶ cm/s
SMILES = CC(C)(O)CC(=O)NCCn1ccc2ncnc(Nc3ccc(Oc4cccc(C(F)(F)F)c4)c(Cl)c3)c21; cell line = Ba/F3 IL-3-dependent; assay = cell proliferation; setting = 48 h, counter-screen; endpoint = CC50; value = > 10 µM
SMILES = Cc1noc(C)c1Cn1cc(N2C(=O)CN(Cc3cccc(O)c3)C2=O)cn1; cell line = human blood lymphocytes; setting = 600 µg/mL, 21 h; endpoint = aberrant cells with gaps; value = 0.5%
SMILES = COc1ccc(-c2nc(NS(=O)(=O)c3ccc(C)cc3)nc(N)c2-c2nc3ccccc3s2)cc1; cell line = BGM; assay = cytotoxicity; setting = 72 h; endpoint = maximum non-toxic concentration; value = 90 µg/mL
SMILES = Cc1cc(/C=C/C#N)cc(C)c1Nc1ccnc(Nc2ccc(C#N)cc2)n1; cell line = TZM-bl; assay = CellTiter-Blue; setting = 48 h; endpoint = CC50; value = > 5 µM
SMILES = C[C@]12CC[C@@H]3c4ccc(O)cc4C[C@@H](CCCCCCCCC[S+]([O-])CCCC(F)(F)C(F)(F)F)[C@H]3[C@@H]1CC[C@@H]2O (some centres unmarked); cell line = LCC2 tamoxifen-resistant; assay = CCK-8; setting = 100 nM; how to read = baseline: untreated; endpoint = viability; value = 94.8% and 95.2% and 84.6%
SMILES = C[C@]12CC[C@@H]3c4ccc(OS(=O)(=O)O)cc4CC[C@H]3[C@@H]1CCC2=O; cell line = Caco-2 cells; setting = together with: novobiocin; how to read = baseline: without over with novobiocin; endpoint = efflux ratio; value = 10.7
SMILES = N#Cc1cc(C#N)c(=O)n(NS(=O)(=O)c2ccccc2)c1N; cell line = BGM; setting = 72 h; endpoint = maximum non-toxic concentration; value = 90 µg/mL
SMILES = Cc1ccc(S(=O)(=O)Nc2nc(N)c(-c3nc4ccccc4s3)c(-c3ccc(Cl)cc3)n2)cc1; cell line = BGM; assay = cytotoxicity; setting = 72 h; endpoint = maximum non-toxic concentration; value = 100 µg/mL
SMILES = COc1cccc2c1C(=O)c1c(O)c3c(c(O)c1C2=O)C[C@@](O)(C(=O)CO)C[C@@H]3O[C@H]1C[C@H](N)[C@H](O)[C@H](C)O1; cell line = HFF foreskin fibroblasts; assay = cell viability, MTT; setting = 48 h, 10% FBS; endpoint = CC50; value = 15.4 µM
SMILES = O=C(c1ccc(C(=O)N2CCC(N3CCCC3)CC2)c(Nc2ccccc2)c1)N1CCC(N2CCCC2)CC1; cell line = HEK-293T/17; assay = CellTiter-Glo; setting = up to 100 µM, 24 h; endpoint = viability; value = not toxic
SMILES = Cc1cc(C(=O)NC(C)(C)COc2cccc3c2C(N)=NS(=O)(=O)N3)cc(C)n1; cell line = human peripheral blood lymphocytes; assay = CBPI, concurrent micronucleus test; setting = 500 µg/mL, 4 h, together with: rat liver S9; how to read = baseline: vehicle control; endpoint = cytotoxicity; value = -5%
SMILES = Nc1nc(NS(=O)(=O)c2ccccc2)nc(-c2ccc(F)cc2)c1-c1nc2ccccc2s1; cell line = BGM; assay = cytotoxicity; setting = 72 h; endpoint = maximum non-toxic concentration; value = 100 µg/mL
SMILES = Cc1ccc(S(=O)(=O)Nn2c(N)c(C#N)cc(C#N)c2=O)cc1; cell line = BGM; setting = 72 h; endpoint = maximum non-toxic concentration; value = 90 µg/mL
SMILES = C[C@H]1[C@H](OC(=O)CCC(=O)O)O[C@@H]2O[C@@]3(C)CC[C@H]4[C@H](C)CC[C@@H]1[C@@]24OO3; cell line = human iPSC-derived endothelial cells; assay = cell viability; setting = 72 h; endpoint = highest non-toxic concentration; value = > 10 µM
SMILES = COC[C@@H](CC(C)C)NC(=O)c1ccc(C)c(C)c1; cell line = primary human lymphocytes; setting = 280 µg/mL, 4 (unit not given), with S9; endpoint = mean mitotic index; value = 10.9
SMILES = CSc1c(-c2nc3ccccc3s2)c(N)n(NS(=O)(=O)c2ccccc2)c(=O)c1C#N; cell line = BGM; setting = 72 h; endpoint = maximum non-toxic concentration; value = 90 µg/mL
SMILES = O=C(c1cc(-n2sc3ncccc3c2=O)ccc1Cl)N1CCOCC1; cell line = TZM-bl; assay = viability; endpoint = CC50; value = > 100 µM
SMILES = Cc1ccc(S(=O)(=O)Nn2c(N)c(-c3nc4ccccc4s3)c3[nH]nc(N)c3c2=O)cc1; cell line = BGM; setting = 72 h; endpoint = maximum non-toxic concentration; value = 90 µg/mL
SMILES = COc1ccc(S(=O)(=O)ON=C2C=C(C)C(=O)C(C)=C2)cc1; cell line = ZR-75-1; assay = cell viability; endpoint = CC50; value = 8.91 µM

For quick reference, copied from above:
SMILES = CCN(CC)C(=S)SSC(=S)N(CC)CC; cell line = differentiated LUHMES MT1G::HiBiT-G2 neurons; assay = cytotoxicity; test system = 3D neurospheres; setting = 24 h; endpoint = AC50; value = < 1 µM
SMILES = FC(F)(F)CN1CC(n2cc(Oc3ccn4nc(Cl)cc4n3)cn2)C1; cell line = Caco-2/TC7; setting = 20 µM; endpoint = Papp (A-B); value = 61.8 ×10⁻⁶ cm/s
